# Published values from different studies.
# Every numbered part comes from another study and shows a few of its results, in no order.

# Block 1
# Target: Sal-like protein 4, full length isoform B (SALL4, Homo sapiens, UniProt Q9UJQ4-2, residues 1-616)
# Method: universal PBM
# Molecule type: double-stranded DNA, one strand shown
# Sample: in vitro
# Concentration: not given
# Notes: 8-mer, flanks averaged, mean of replicates
# Direction: higher = stronger binding
Strand,E-score
ATACCAAG,0.135
CTGCTGGC,-0.332
TGCTGCAA,0.103
ATGGTCTA,0.0124
GGGTAGAC,-0.241
CAGAACCA,-0.128
ATGTTCTC,0.114
CCTCTTAG,0.0471

# Block 2
# Target: Histone acetyltransferase KAT6A, both winged helices, GST fusion (KAT6A, Homo sapiens, UniProt Q92794, residues 1-181)
# Method: protein binding microarray
# Molecule type: double-stranded DNA, one strand shown
# Sample: in vitro
# Concentration: not given
# Notes: 8-mer, flanks averaged, mean of 2 arrays, mostly near background
# Reference: not given
# Direction: higher = stronger binding
# Residues (chain): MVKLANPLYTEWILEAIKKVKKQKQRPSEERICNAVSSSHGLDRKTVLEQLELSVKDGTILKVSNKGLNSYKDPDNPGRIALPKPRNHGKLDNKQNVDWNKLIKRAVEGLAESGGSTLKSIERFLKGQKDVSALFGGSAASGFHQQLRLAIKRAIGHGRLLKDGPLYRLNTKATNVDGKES
Strand,E-score
ATTTAGTG,-0.181
AATTCCGA,0.0239
AACATACC,0.0222
ACGGCACT,0.247
AGCTCATC,-0.174

# Block 3
# Target: RING finger protein unkempt homolog, zinc fingers 1-6, GST-SBP tag (UNK, Homo sapiens, UniProt Q9C0B0, residues 30-357)
# Chain of UniProt Q9C0B0 (30-357, looked up): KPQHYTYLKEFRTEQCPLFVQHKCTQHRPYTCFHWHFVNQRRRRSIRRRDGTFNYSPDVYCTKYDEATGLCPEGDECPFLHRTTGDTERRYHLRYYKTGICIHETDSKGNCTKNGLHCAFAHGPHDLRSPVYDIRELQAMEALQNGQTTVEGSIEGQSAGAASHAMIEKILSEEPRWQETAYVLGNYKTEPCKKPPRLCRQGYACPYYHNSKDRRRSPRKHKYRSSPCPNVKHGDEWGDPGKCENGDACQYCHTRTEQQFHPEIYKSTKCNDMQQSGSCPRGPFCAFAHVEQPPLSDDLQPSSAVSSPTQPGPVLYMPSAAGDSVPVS
# Method: RNA Bind-n-Seq
# Molecule type: RNA
# Sample: in vitro
# Concentration: not given
# Notes: RNA with constant flanks, human and mouse sites, ends assumed
# Reference: input RNA pool
# Direction: higher = stronger binding
# Constant ends, left off below: GGGAGUUCUACAGUCCGACGAUC … CAACAGAGGAUUGAGCAUCA
Strand,bound/input enrichment
AAAUGACCUUUAACUUUUCUAAAAAUGUGAAGUUUUGUACUUACAUAUCAUCUAAAGUAUUAUAGCAUUUUUAAGUGUACUUAGUUUGAUGCCACUUUUAGUGUUUUGUUGCUUUUGUCU,2.82 ratio
AGUGGGAACAUUACUUUUGAUGAGAUUGUCAACAUUGCCCGGCAGAUGAGACACCGGUCUUUGGCUAGAGAACUUUCUGGAACUAUCAAGGAGAUCCUGGGUACUGCACAGUCUGUGGGC,0.221 ratio
GUUAUUUUCAUGUGGUCAUUGCUGGCCCUCAGGAUUCCCCCUUUGAGGGAGGGACUUUUAAACUUGAACUAUUCCUUCCAGAAGAAUACCCAAUGGCAGCCCCUAAAGUACGUUUCAUGA,0.216 ratio
CCUACACCAGAACAAGAGGAAAAAGCACUAUUGUCAUCACCUGAAGGAGAAGAAAAAGUAUACAAUGCAACAUCAGAUGCUGACCUGAAAGAACAUAUGGUUGGAAUCAUAUUCAGCAGG,0.144 ratio
CUGCCUACCUCAGAGCAUAAAUGCAUACAUUCUAGAGAAGAUGAAGACUUAAUUGAAAAUUUAGCCCAAGAUGAAACAUCUAGGCUGGACCUUGGAUUUGAGGAGUGGGAUGUAGCUGGC,0.306 ratio
UGUAGAUUUAUCCUAAAUUUGCUGUAGCAGUGGGGAAGAGGGACGGAUAUUUUUAAUUGAUUAGUGUUUUUUUCCUCACAUUUGACAUGACUGAUAACAGAUAAUUAAAAAAAGAGAAUA,0.465 ratio

# Other studies, line by line
Substance,target,assay,system,setting,how to read,endpoint,value
"PhoQ, residues 284 288 289 292 302 303 AANNSF","PhoP, residues 12 14 15 18 19 GHCSL (Escherichia coli, UniProt P23836)","Sort-seq, refers to: YFP reporter",E. coli,"PhoQ-PhoP variant library, together with: 10 µM Mg2+","reference: high Mg2+ state, higher = stronger signaling",fold induction,9.95

# A few entries again (block 2):
Strand,E-score
AATTCCGA,0.0239
AACATACC,0.0222
